# Experimental data pooled from the literature.
# Every numbered part comes from another study and shows a few of its results, in no order. Changes are numbered by the printed parent chain.

# Block 1
# Target: CCNB1, cyclin fold, Cln2 fusion (human)
# Method: yeast growth competition, sequencing
# Matrix: yeast
# Setting: weak parent motif
# Baseline: not given
# Reading: higher = stronger binding
# Starting sequence: RBL1 docking peptide (human); GSAKRRLFGEDPP
Change,normalised enrichment score
GTAKRRLFGEDPP [S2T],0.535
GSAKRRLFGPDPP [E10P],1.1
GSAKRRLFGEVPP [D11V],0.493
GSAKRRLYGEDPP [F8Y],-0.0978
GSAERRLFGEDPP [K4E],-0.739
GSDKRRLFGEDPP [A3D],-0.379
GSAKRRLFGEHPP [D11H],0.56
GSAKRRLFGYDPP [E10Y],0.347
GSAKARAFGEDPP [R5A L7A],0.187
GSNKRRLFGEDPP [A3N],-0.319
GSRKRRLFGEDPP [A3R],0.494
GSAKRRVFGEDPP [L7V],0.871
GSAVRRLFGEDPP [K4V],1.69
GSAKRILFGEDPP [R6I],0.372
GFAKRRLFGEDPP [S2F],0.102
GSVKRRLFGEDPP [A3V],2.93
GSAKRRMFGEDPP [L7M],0.22
GSAKRRLFREDPP [G9R],0.962
GKAKRRLFGEDPP [S2K],-0.162
GSAKRRLFHEDPP [G9H],0.24
GSAKRRLQGEDPP [F8Q],0.123

# Block 2
# Target: Prothrombin, mature alpha-thrombin (F2, Homo sapiens, UniProt P00734)
# Method: aptamer microarray, sandwich
# Molecule type: DNA with 2'F-ANA
# Matrix: in vitro
# Concentration: 200 nM
# Setting: whole 15-mer aptamer, many near background
# Together with: Cy3 exosite-II aptamer, 400 nM
# Reading: higher = stronger binding
# Sequence: GGTTGGTGTGGTTGG
Modification,mean fluorescence intensity [a.u.]
2'F-ANA at 2 4 5 11 12 15,96.1
2'F-ANA at 2 4 5 6 9 12 13 14 15,53.5
2'F-ANA at 1 6 7 9 10 12 13 14,53.2
2'F-ANA at 6 9 12,714
2'F-ANA at 5 8 10 12 13 15,179
2'F-ANA at 1 2 3 5 6 10 12 14 15,46.8
2'F-ANA at 4 11 12 13 15,413
2'F-ANA at 1 2 5 8 9 14,47.2
2'F-ANA at 1 2 6 7 8 10 11 13 14,54.1
2'F-ANA at 2 4 7 8 9 12 15,584
2'F-ANA at 2 5 7 8 11 12,160
2'F-ANA at 3 6 8 9 12 14 15,642
2'F-ANA at 2 3 5 7 9 10 11,58.9
2'F-ANA at 1 2 3 8 9 14 15,76
2'F-ANA at 1 2 7 8 9 10 11 12 13 15,70.8
2'F-ANA at 1 2 3 4 5 7 12 15,115

# Block 3
# Target: Histone acetyltransferase KAT6A, winged helix 2, GST fusion (KAT6A, Homo sapiens, UniProt Q92794, residues 85-181)
# Method: protein binding microarray
# Molecule type: double-stranded DNA, one strand shown
# Matrix: in vitro
# Concentration: not given
# Setting: 8-mer, flanks averaged, mean of 2 arrays, mostly near background
# Baseline: not given
# Reading: higher = stronger binding
# Residues (chain): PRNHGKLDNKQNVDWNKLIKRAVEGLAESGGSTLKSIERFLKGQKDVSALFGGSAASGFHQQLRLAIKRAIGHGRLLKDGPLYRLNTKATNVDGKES
Sequence,E-score
CCACCCGA,0.224
ACTTTACA,-0.124
ATTCTATG,-0.0205
AACACGCA,-0.0573
AGTATCGA,0.0678
AGGACACG,-0.207
GGGACGAC,0.0971
CCTAAGGC,-0.148
CCTCACCA,0.0402
ACCTCCCC,-0.0612
CCTAGTGA,-0.0222
CTGTGTGC,0.0187
CGACGTAC,0.0487
ACGTCTGG,0.0494
GAGGTTAA,0.0362
ACTGATAA,-0.0653
CTCAAATA,-0.0871
CTTTTTCC,0.109
AGAACACT,0.00499
GCTCCTTA,-0.0672
ATAACACA,-0.193
GAGGCGAC,-0.024

# Block 4
# Target: Centromere-binding protein 1, full length, N-terminal tag (CBF1, Saccharomyces cerevisiae, UniProt P17106, residues 1-351)
# UniProt P17106, sequence (whole entry, looked up): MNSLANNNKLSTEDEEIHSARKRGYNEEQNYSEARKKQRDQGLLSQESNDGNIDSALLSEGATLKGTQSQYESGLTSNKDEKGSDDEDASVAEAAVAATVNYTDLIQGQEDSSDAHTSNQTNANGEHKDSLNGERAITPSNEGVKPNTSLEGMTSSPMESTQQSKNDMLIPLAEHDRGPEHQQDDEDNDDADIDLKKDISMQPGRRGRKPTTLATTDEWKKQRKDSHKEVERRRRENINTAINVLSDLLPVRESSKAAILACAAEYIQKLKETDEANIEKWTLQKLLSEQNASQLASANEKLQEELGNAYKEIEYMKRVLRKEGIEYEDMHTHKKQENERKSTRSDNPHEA
# Method: protein-binding microarray
# Molecule type: double-stranded DNA, one strand shown
# Matrix: in vitro
# Concentration: 0.8 µM
# Setting: whole 60-bp probe, no competitor
# Reading: higher = stronger binding
# Constant ends, left off below: … GTCTTGATTCGCTTGACGCTGCTG
Sequence,fluorescence intensity [a.u.]
CTAGCGTCATAATTTCACGTGTTATAATAGCCATTC,3310
GAAGTGTGGAGGATCCATGTGGTTTCGTTAGCGTAG,531
CCTAACTACTATAATCACGTATTATAGCTTCGTACA,662
CTACTATACATCAACATCAGCATCAAAATTAACTTC,521
CTAAACAAGAAGCAACAGCTGAGATATTTGTTTTTC,499
GAAGGTTCTACCTCCCACCTGCAAGGGGTCGTGTAG,487
CCTAACTACTATATTTTAGTCACATAGCTTCGTACA,600
GAATTTACAGGCTAAGTGGTGTCACTATCCCCATAG,497
CTATAATGTGTATATAACGTGGTCTTAAATTATTTC,997
GAAGAAAGCCGCGGGATCACCACCGTTATTCGTTAG,519
CCTAACTACTATAATGTGATTTGATAGCTTCGTACA,593
GAAGACATGGCGTGAAACGTGTAGGCAAGGAAGTAG,620
GAATAATATACTGGTAGTGTGACTACTAGTTGATAG,983

# Block 5
# Target: Ras GTPase-activating protein-binding protein 1, full length (G3BP1, Homo sapiens, UniProt Q13283)
# UniProt Q13283, sequence (whole entry, looked up): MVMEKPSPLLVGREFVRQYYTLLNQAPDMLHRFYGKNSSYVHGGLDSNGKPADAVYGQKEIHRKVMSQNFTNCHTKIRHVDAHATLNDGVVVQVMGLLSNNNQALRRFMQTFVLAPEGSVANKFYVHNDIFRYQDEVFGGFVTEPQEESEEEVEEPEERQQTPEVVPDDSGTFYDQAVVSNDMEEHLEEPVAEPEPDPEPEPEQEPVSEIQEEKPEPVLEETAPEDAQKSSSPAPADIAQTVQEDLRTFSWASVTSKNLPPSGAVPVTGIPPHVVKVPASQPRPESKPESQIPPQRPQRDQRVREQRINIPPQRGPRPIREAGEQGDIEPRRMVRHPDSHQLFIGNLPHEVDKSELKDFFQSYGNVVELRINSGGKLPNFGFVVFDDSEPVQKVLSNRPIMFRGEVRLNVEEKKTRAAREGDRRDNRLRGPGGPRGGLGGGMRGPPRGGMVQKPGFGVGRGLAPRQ
# Method: RNA Bind-n-Seq
# Molecule type: RNA
# Matrix: in vitro
# Concentration: 200 nM
# Setting: whole 134-nt RNA, ends assumed
# Together with: 150 mM KCl
# Baseline: input library
# Reading: higher = stronger binding
# Constant ends, left off below: GGGAGUUCUACAGUCCGACGAUC … UGGAAUUCUCGGGUGUCAAGG
Sequence,log2 enrichment
CAAGUCCUGUGCUACACAUCGUAUGUACCGAAUCGGGGAAGGGGAAGGGAAGGGGAAAGUAUUAUGUUACGCCGUUCGGAUCUGCACUUC,1.17
UCAAGUCCUGUGCUACACAUCGUAUGUACCGAAUCGGGCCGGCCGGGGCCGGGGAAAGUAUUAUGUUACGCCGUUCGGAUCUGCACUUCC,-0.461
AAGUCCUGUGCUACACAUCGUAUGUACCGAAUCGGGUUUGGGUGGGUUUUUUUGGGAAAGUAUUAUGUUACGCCGUUCGGAUCUGCACUU,0.31
UAACUUUAGAGGAGGAUCUGAUGGAUAUGGCAGUGGACGGGGAUUUGGGGAUGGCUAUAAUGGGUAUGGAGGAGGACCUGGAGGUGGCAA,0.562
CACAGACAACACGCACCCACACAGACACAGAGGGAAGGGGUUGGGAUGGGGACAGGGUGCGCAGCAGGGCGGGGUAGGACCCCAGCCCCU,1.84
GUCCUGUGCUACACAUCGUAUGUACCGAAUCGGGGUGGGGAAAGGGGUUUUUUUGGGGAAAGUAUUAUGUUACGCCGUUCGGAUCUGCAC,0.547
AGUCCUGUGCUACACAUCGUAUGUACCGAAUCAAAUUUUUAAAUUUUUAAACCCAAAAAAGUAUUAUGUUACGCCGUUCGGAUCUGCACU,-0.434

# For quick reference, copied from above (block 5):
Sequence,log2 enrichment
CACAGACAACACGCACCCACACAGACACAGAGGGAAGGGGUUGGGAUGGGGACAGGGUGCGCAGCAGGGCGGGGUAGGACCCCAGCCCCU,1.84
GUCCUGUGCUACACAUCGUAUGUACCGAAUCGGGGUGGGGAAAGGGGUUUUUUUGGGGAAAGUAUUAUGUUACGCCGUUCGGAUCUGCAC,0.547
CAAGUCCUGUGCUACACAUCGUAUGUACCGAAUCGGGGAAGGGGAAGGGAAGGGGAAAGUAUUAUGUUACGCCGUUCGGAUCUGCACUUC,1.17
UCAAGUCCUGUGCUACACAUCGUAUGUACCGAAUCGGGCCGGCCGGGGCCGGGGAAAGUAUUAUGUUACGCCGUUCGGAUCUGCACUUCC,-0.461
UAACUUUAGAGGAGGAUCUGAUGGAUAUGGCAGUGGACGGGGAUUUGGGGAUGGCUAUAAUGGGUAUGGAGGAGGACCUGGAGGUGGCAA,0.562
AGUCCUGUGCUACACAUCGUAUGUACCGAAUCAAAUUUUUAAAUUUUUAAACCCAAAAAAGUAUUAUGUUACGCCGUUCGGAUCUGCACU,-0.434
AAGUCCUGUGCUACACAUCGUAUGUACCGAAUCGGGUUUGGGUGGGUUUUUUUGGGAAAGUAUUAUGUUACGCCGUUCGGAUCUGCACUU,0.31
